Assay results from different studies.
Each numbered part is a random draw from the data of one study; scales do not carry over between parts.

Series 1
Target: Protein C-ets-1 (ETS1, Homo sapiens, UniProt P14921, residues 1-441, K379A, full length assumed)
Method: protein-binding microarray
Molecule type: double-stranded DNA, one strand shown
Matrix: in vitro
Concentration: not given
Setting: k-mer, scored over probes, only values ≥0.25
Direction: higher = stronger binding
Measurement: E-score
Residues (chain): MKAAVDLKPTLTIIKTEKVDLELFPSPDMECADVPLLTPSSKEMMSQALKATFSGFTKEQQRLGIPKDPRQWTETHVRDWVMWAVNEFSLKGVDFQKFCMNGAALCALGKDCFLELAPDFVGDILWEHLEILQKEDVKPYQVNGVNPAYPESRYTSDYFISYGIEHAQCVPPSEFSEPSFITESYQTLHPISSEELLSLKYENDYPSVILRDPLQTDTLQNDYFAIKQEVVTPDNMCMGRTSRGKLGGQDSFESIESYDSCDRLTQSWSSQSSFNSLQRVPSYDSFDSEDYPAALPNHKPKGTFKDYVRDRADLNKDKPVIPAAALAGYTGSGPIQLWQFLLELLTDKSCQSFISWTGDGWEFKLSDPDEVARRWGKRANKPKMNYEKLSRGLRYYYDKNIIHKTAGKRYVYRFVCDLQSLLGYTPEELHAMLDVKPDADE
ATAATAAC: 0.252
GGTAATTA: 0.27
GGGTGGGA: 0.326
GCAATACA: 0.31
GTCGTTTA: 0.277
CCGGCAAG: 0.275
ATAAATGG: 0.262
ATTCGTCG: 0.272
CCGGTTGC: 0.449
AACGTCAT: 0.252
AATAACGG: 0.287
ATCACGAC: 0.254
ACCACCGG: 0.378
CACCGACG: 0.369
AACACAGC: 0.261
ACTACCGG: 0.363
ACATGTTG: 0.262
GACAGACA: 0.294
GTTCCGGA: 0.365
ATATTACA: 0.302
CCGGTTTA: 0.3
ACCCCGCC: 0.424
ACCGGTAT: 0.464
GTGTCGTA: 0.263
CCGGTATA: 0.426

Series 2
Target: Histone acetyltransferase KAT6A, winged helix 1, GST fusion (KAT6A, Homo sapiens, UniProt Q92794, residues 1-85)
Method: protein binding microarray
Molecule type: double-stranded DNA, one strand shown
Matrix: in vitro
Concentration: not given
Setting: 8-mer, flanks averaged, mean of 2 arrays, mostly near background
Baseline: not given
Direction: higher = stronger binding
Measurement: E-score
Residues (chain): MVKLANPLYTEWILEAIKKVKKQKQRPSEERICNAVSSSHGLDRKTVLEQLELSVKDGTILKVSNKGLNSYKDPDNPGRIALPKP
TGGTCGAA: -0.368
CTGCAGAC: -0.0417
CAAGCACC: -0.143
TACTCACA: -0.253
TCAAGCAA: -0.207
AATAGGGC: -0.112
CCCGGCGG: 0.476
GTCCGAAA: -0.00511
CCAATCGA: -0.278
AGCATTGC: 0.0129
AACATAGT: -0.0817
CAGCGTAG: 0.0425
GTGACATA: -0.207
ATGCTAGG: -0.0345
ACACTTTC: -0.0946
AAGTTGTG: -0.279
AAACTCTC: -0.0491
TAATTGCA: -0.024
CTTACTTC: -0.0506
AGATGGGG: -0.128
ACAAAACG: 0.0217
GGAATCAA: 0.0313
CCATTGGA: -0.175

Series 3
Target: Prothrombin, mature alpha-thrombin (F2, Homo sapiens, UniProt P00734)
Method: aptamer microarray, sandwich
Molecule type: DNA with 2'F-ANA
Matrix: in vitro
Concentration: 200 nM
Setting: whole 15-mer aptamer, many near background
Added: Cy3 exosite-II aptamer, 400 nM
Direction: higher = stronger binding
Measurement: mean fluorescence intensity
Sequence: GGTTGGTGTGGTTGG
2'F-ANA at 3 4 6 8 9 10 13 14: 158 a.u.
2'F-ANA at 2 3 5 7 8 9 10 11 13 15: 66.5 a.u.
2'F-ANA at 1 7 9 10 12 13: 64.9 a.u.
2'F-ANA at 3 4 7 9 10 12 13 15: 321 a.u.
2'F-ANA at 1 2 4 6 7 8 10 11 12 14: 46.7 a.u.
2'F-ANA at 2 3 4 5 6 8 12 14 15: 72 a.u.
2'F-ANA at 1 3 4 6 7 8 10 11 12 15: 76.7 a.u.
2'F-ANA at 3 5 6 7 8 9 11 12: 206 a.u.
2'F-ANA at 1 5 6 7 10 12 13: 44.8 a.u.
2'F-ANA at 1 6 7 8 11 15: 185 a.u.
2'F-ANA at 1 3 4 5 7 9 11 14: 102 a.u.
2'F-ANA at 1 3 4 5 6 7 8 11 12 15: 122 a.u.
2'F-ANA at 3 4 5 7 11 12: 170 a.u.
2'F-ANA at 1 2 7 8 10: 56.7 a.u.
2'F-ANA at 3 7 11 12 14: 878 a.u.
2'F-ANA at 1 2 5 6 8 9 11 12 13 15: 67.3 a.u.
2'F-ANA at 1 2 3 4 5 7 8 9 10 11 13 15: 49.6 a.u.
2'F-ANA at 5 8 10 13 14: 49.3 a.u.
2'F-ANA at 1 2 4 5 7 8 9 11 12 14: 50.1 a.u.

Series 4
Target: RING finger protein unkempt homolog, zinc fingers 1-6, SBP tag (UNK, Homo sapiens, UniProt Q9C0B0, residues 30-357)
UniProt Q9C0B0, sequence (30-357, looked up): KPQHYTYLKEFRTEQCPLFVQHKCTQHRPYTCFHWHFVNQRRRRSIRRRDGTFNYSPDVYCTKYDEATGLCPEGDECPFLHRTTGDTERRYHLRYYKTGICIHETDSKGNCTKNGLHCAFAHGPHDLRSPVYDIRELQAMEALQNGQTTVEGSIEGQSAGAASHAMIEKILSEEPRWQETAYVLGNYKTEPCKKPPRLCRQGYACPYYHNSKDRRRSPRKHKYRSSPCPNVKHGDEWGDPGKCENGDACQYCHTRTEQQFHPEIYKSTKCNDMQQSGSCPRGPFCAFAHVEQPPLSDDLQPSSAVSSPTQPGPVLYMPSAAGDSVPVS
Method: RNA Bind-n-Seq
Molecule type: RNA
Matrix: in vitro
Concentration: 100 nM
Setting: RNA with constant flanks, vertebrate orthologous sites, ends assumed
Baseline: input RNA pool
Direction: higher = stronger binding
Measurement: bound/input enrichment
Constant ends, left off below: GGGAGUUCUACAGUCCGACGAUC … CAACAGAGGAUUGAGCAUCA
CCCCAUAAUCCCAUCUCAUCUGUCUCUUAAUGGAAUGGGAUGUUCCUGCCUCUGGAUUCAUUGGAGCCAUGCAUGUACUUGAAGGAUGUAUGAGUCAGACACUUACUGGCAAAUGGGACA: 0.458 ratio
GUUGUGACCCGUUUAAUAUACACAAAAAGCUAGCCAAAAAGAAUCUGCAUGUAAUUGACUUAGAUGAUGCCACGUUUCUGAGUGCAAAGUUUGGAAGACAGCUGGUACCUGGUUGGAAGC: 0.638 ratio
GAACUAAAGGAGUUAGCAUCUUUAUUUUUGUAUCAAAGAUAAAGAUUAUUUUGAAAUUAUUAAGAUUUUUACACAACUCUGAAAUCUGUUGCUUUUGUAAACAAGUUGUUUAAUCUUAGG: 0.583 ratio
GUUAGGUCAUGACCCUUACAGGCUAGGUCAUGAUGCCUACAGGUUAGGGCAAGACCCCUAUAGAUUAGGCCAUGAUCCCUACAGACUAACUCCUGAUCCCUAUAGGAUGUCACCUAGACC: 0.506 ratio
UAUUUAAAAUACAUUUAGUAGUAUUUAAUAACCUCAUUCCUAGUUCCUUGUUCAUUAAAGUAGCUCCUUUCUAUUAUUACCAUUUUUAACAGUAUGAACAAGUUGAAGGUUUGUGCAGUA: 1.8 ratio
AAUCACUAAUUGUAAUCUGAAUAAAGUGUAACAUUGUGUAGCCUUUUUUUUUGUAUAAAAUAGACAAAUAGAAAUGGUCCAAUUAGUUUCCUUUUUAAUAUGCUUAAAAGAAGCAGGUGG: 0.951 ratio
ACACUCACAUUGUGGCAAACAGUCAACAUGGAAGUAGACCGGCUCUGCUGAUUUGAAAUUUAGAUUUUUUUUUAAUUAUGUACUGGGGACAGGUUUUUGUCGCUUUACAUUGCUUCCUAG: 4.66 ratio
AUAGGGGUGGGGUGGGAAAGGGAUAUGGAUGUUAGGAUGUUAUUGGCAUUUUUAAGUGUUCCAGGGUUUUGUUUUGUUGUUGUUAAUGUUCCUGUUUUCCCCUCAUUAAUUGGAUGCACU: 0.973 ratio

Some of these lines once more (series 1):
GCAATACA: 0.31
GGGTGGGA: 0.326
CCGGTTGC: 0.449
GACAGACA: 0.294
ACCACCGG: 0.378
ATTCGTCG: 0.272
ATCACGAC: 0.254
ATAAATGG: 0.262
GTGTCGTA: 0.263
ACCGGTAT: 0.464
ATATTACA: 0.302
